Results pooled from the literature.
Each line is one published result; not all experiments were run side by side.

| Compound | assay | test system | conditions | measurement | value |
| --- | --- | --- | --- | --- | --- |
| CN1CCN(c2cccc3c2CCN(C(=O)/C=C/c2c(-n4cnnn4)ccc(Cl)c2F)[C@@H]3C(=O)Nc2ccc(C(=O)O)cc2)C(=O)C1 |  | healthy human subjects | intravenous infusion, 10 mg/h, 2 h | subjects with serious adverse event | 0% |
| Cc1cc(Nc2cc3ncccc3c(N[C@@H]3C[C@H]4CC[C@@H](C3)N4CCC#N)n2)n[nH]1 |  | healthy human | oral, 1000 mg single dose, 2 weeks | subjects with epistaxis | 0% |
| CC(C)(C(=O)N1CCOc2c(C#N)cncc2C1)C(F)F | item: ALT increased | human | oral, 20 mg twice daily, 14 days, multiple ascending dose | subjects with adverse event | 0% |
| C[C@@H](c1nc(-c2ccc(C#N)cc2)cs1)[C@](O)(Cn1cncn1)c1cc(F)ccc1F | any adverse event | human | oral, dose not given, together with: ethinyl estradiol/norethindrone | subjects with adverse event | 26.1% |
| C[C@@H](Oc1ccc(S(C)(=O)=O)cc1C(=O)N1C[C@@H]2C[C@]2(c2cc(C(F)(F)F)on2)C1)C(F)(F)F |  | human | oral, 25 mg | subjects with abdominal discomfort | 16.7% |
| Cc1cc(-c2nccc3c2ccn3CC(=O)Nc2ccc(-c3cnccn3)cn2)ccn1 |  | human | MAD part, 5 mg once daily | subjects with TEAE leading to discontinuation | 25% |
| C[C@H]1CN(C(=O)CC#N)[C@]12CCN(c1ncnc3[nH]ccc13)C2 |  | healthy human | oral, 3 mg single | subjects with Dizziness | 0% |
| CC(C)n1c(Nc2cccnc2)nc2cnc(Nc3ccc(N4CCN(C)CC4)cc3)nc21 | item: haemoglobin increased | healthy human, male | oral, dose not given, CTCAE grade 1-3 | subjects with TEAE | 2.4% |

A few entries again:
| Compound | assay | test system | conditions | measurement | value |
| --- | --- | --- | --- | --- | --- |
| C[C@@H](Oc1ccc(S(C)(=O)=O)cc1C(=O)N1C[C@@H]2C[C@]2(c2cc(C(F)(F)F)on2)C1)C(F)(F)F |  | human | oral, 25 mg | subjects with abdominal discomfort | 16.7% |
